Results collected from several papers.
Compare with care: the assays were run in different laboratories. Numbers after ± are the reported error.
Target: Cannabinoid receptor 2 (CNR2, Homo sapiens, UniProt P34972)

With `CCc1nnc(-c2c(OC)cc(-c3cnc4cc(-c5cnn(C)c5)ccn34)cc2OC)o1` the specific binding was 102% (agonist, radioligand binding; 10 µM; reference: control).
`C/C(=N\OCCCN1CCCCC1)c1ccc(C(F)(F)F)cc1` gave an activation of -36.4% (agonist, cAMP; 10 µM).
For `Cc1cc(Nc2nc(C[C@@]3(C(=O)O)CCN(Cc4cccc(Cl)c4F)[C@H](C)C3)cc(C)c2F)[nH]n1`, the activation was -1.25% (agonist; 10 µM).
`CS(C)(=O)=Nc1ccc(-c2ccc(-c3nc4cc(O[C@@H]5CO[C@H]6[C@@H]5OC[C@H]6O)[nH]c4cc3F)cc2)cc1` gave an inhibition of 4% (calcium signal, antagonist; 10 µM).
`CCOC(=O)[C@](CC)(CCCSCCOCCOCCNC(=O)c1ccc(-c2c3ccc(=N)c(S(=O)(=O)O)c-3oc3c(S(=O)(=O)O)c(N)ccc23)c(C(=O)O)c1)NC(=O)c1ccc(C2CC2)c(Cc2ccc(F)cc2)n1` gave an EC50 ratio of 64 (cAMP level; with: forskolin; reference: CB1 over CB2 (human)).
`COC(=O)[C@@H](NC(=O)c1nn(Cc2ccc(F)cc2)c2cc(OCCCCNC(=N)N)ccc12)C(C)(C)C`: “Gi GTP turnover median” 58% (GTPase; reference: FUB).
`CCN(CC)CCOc1ccc(-c2nnn(Cc3ccc(OC)cc3)c2N)cc1` gave an inhibition of -4.61% (radioligand binding; CHO; 10 µM, human, with: radioligand 10000 nM).
For `CCOC(=O)[C@](CC)(CCCSCCOCCOCCNc1ccc([N+](=O)[O-])c2nonc12)NC(=O)c1ccc(C2CC2)c(Cc2ccc(F)cc2)n1`, the Ki ratio was 68 (radioligand binding; reference: CB1 over CB2 (human)).
For `Cc1ccc2c(n1)c(-c1cccc(S(C)(=O)=O)c1)c(C)n2C/C(F)=C/CN`, the inhibition was 10% (ligand displacement, radioligand; 10 µM).
With `CCOC(=O)[C@](CC)(CCCSCCOCCOCCNC(=O)c1ccc(C(=O)[O-])c(C2=C3C=CC(=[N+](C)C)C=C3[Si](C)(C)c3cc(N(C)C)ccc32)c1)NC(=O)c1ccc(C2CC2)c(Cc2ccc(F)cc2)n1` the koff was 0.0045 ± 0.00133 s⁻¹ (dissociation rate).
`C[C@]12CC[C@H]3[C@@H](CC[C@H]4C[C@H](O)CC[C@@]43C)[C@@H]1CC(=O)C2`: activity “inactive” (cAMP level, agonist; concentration not given).
The activity of `Cc1cc(-c2ccc3ccccc3c2)nnc1NCCN1CCN(C)CC1` is reported as 0% (antagonist; 10000 nM; reference: control).
The Ki ratio of `CCOC(=O)C(CC)(CC)NC(=O)c1ccc(C2CC2)c(Cc2ccc(F)cc2)n1` is reported as 27 (radioligand binding; reference: CB1 over CB2 (human)).
